Published values of several laboratories.
Parts stem from different laboratories: compare values within a part only. Substitutions count along the parent as printed.

Set 1
Target: ABI1, truncated, D143A, DHFR fusion (Arabidopsis thaliana)
Technique: DHFR PCA, deep sequencing
Medium: yeast
Notes: methotrexate growth selection, single substitutions
With: (+)-ABA 0 µM
Relative to: wild-type fitted maximum
Reading: higher = stronger binding
Parent: PYL1, truncated, DHFR fusion (Arabidopsis thaliana); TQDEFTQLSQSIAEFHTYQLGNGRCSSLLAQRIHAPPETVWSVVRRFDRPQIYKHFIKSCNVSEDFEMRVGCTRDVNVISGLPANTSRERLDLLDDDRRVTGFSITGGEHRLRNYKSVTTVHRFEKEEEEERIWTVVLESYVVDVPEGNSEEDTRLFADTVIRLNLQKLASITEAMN
For `H34P`, “relative binding score” read 3.8%.
`T6V`: “relative binding score” 42.1%.
Under “relative binding score”, `S171D` is recorded as 31.1%.
Under “relative binding score”, `I57W` is recorded as 3.17%.
Under “relative binding score”, `A175Y` is recorded as -5.71%.
Under “relative binding score”, `F47V` is recorded as -1.24%.
`C25R` — result for “relative binding score”: -1.16%.
For `S140F`, “relative binding score” read -10%.
For `G148Q`, “relative binding score” read 0.966%.
`T101L` — result for “relative binding score”: 63.6%.
Under “relative binding score”, `T86D` is recorded as -1.72%.
`E174N` — result for “relative binding score”: -3.21%.
For `E89Y`, “relative binding score” read 8.56%.
For `A158C`, “relative binding score” read 66.6%.
`R163T`: “relative binding score” 20.1%.

Set 2
Target: Histone acetyltransferase KAT6A, both winged helices, GST fusion (KAT6A, Homo sapiens, UniProt Q92794, residues 1-181)
Technique: protein binding microarray
Molecule type: double-stranded DNA, one strand shown
Medium: in vitro
Tested at: not given
Notes: 8-mer, flanks averaged, mean of 2 arrays, mostly near background
Relative to: not given
Reading: higher = stronger binding
Construct (chain): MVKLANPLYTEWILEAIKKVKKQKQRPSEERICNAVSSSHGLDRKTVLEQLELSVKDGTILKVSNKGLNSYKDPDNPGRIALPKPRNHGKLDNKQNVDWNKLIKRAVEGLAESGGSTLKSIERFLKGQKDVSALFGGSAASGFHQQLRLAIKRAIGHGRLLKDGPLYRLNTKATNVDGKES
The E-score of `AGCTACGC` is reported as 0.168.
With `ATCACGGG` the E-score was 0.115.
With `ACGACAAC` the E-score was 0.0426.
The E-score of `CTCGTCCA` is reported as -0.0243.
The E-score of `AGCCCTGA` is reported as -0.124.
`CTAGTGCA` gave an E-score of -0.00517.
`AGGTCTAT` gave an E-score of 0.0321.
For `GCAAAGAC`, the E-score was -0.00841.
`GCCTATGA` gave an E-score of 0.0268.
For `CAGTGTCC`, the E-score was -0.045.
For `GCGAAAGC`, the E-score was 0.0696.
`AAGCTTAC` has an E-score of -0.0777.
`GGGCTGTA` gave an E-score of -0.189.
`CTGCGGTA` gave an E-score of 0.144.
With `TACTCTAA` the E-score was 0.00901.
For `ACTACAAT`, the E-score was 0.011.
`TCGATCGA` has an E-score of 0.133.

Set 3
Target: CCND2, cyclin fold, Cln2 fusion (human)
Technique: yeast growth competition, sequencing
Medium: yeast
Notes: strong parent motif
Relative to: not given
Reading: higher = stronger binding
Parent: PKN2 docking peptide (human); VSAVRKLDFSDTM
For `R5S`, “normalised enrichment score” read 0.239.
`R5N`: “normalised enrichment score” 0.048.
For `L7N`, “normalised enrichment score” read 0.165.
Under “normalised enrichment score”, `F9Y` is recorded as 0.482.
For `T12N`, “normalised enrichment score” read 4.04.
For `T12Y`, “normalised enrichment score” read 3.4.
`D8Y` — result for “normalised enrichment score”: 1.
Under “normalised enrichment score”, `S2K` is recorded as 2.68.
For `V4Q`, “normalised enrichment score” read 2.44.
`F9V` — result for “normalised enrichment score”: 0.271.
`D8T`: “normalised enrichment score” 2.
For `T12I`, “normalised enrichment score” read 3.35.
Under “normalised enrichment score”, `K6H` is recorded as 1.79.
For `S10T`, “normalised enrichment score” read 3.38.
For `V4I`, “normalised enrichment score” read 4.18.
`S2R` — result for “normalised enrichment score”: 3.
Under “normalised enrichment score”, `D11P` is recorded as 2.59.
`A3T` — result for “normalised enrichment score”: 1.42.
`S2A` — result for “normalised enrichment score”: 1.77.
`R5W` — result for “normalised enrichment score”: 0.63.
`D8P` — result for “normalised enrichment score”: 0.71.
`V4N` — result for “normalised enrichment score”: 1.46.
`F9M` — result for “normalised enrichment score”: 0.801.
Under “normalised enrichment score”, `D11K` is recorded as 3.05.
Under “normalised enrichment score”, `D11S` is recorded as 3.41.

Set 4
Target: CRIPT, C-terminal peptide
Technique: DHFR complementation, deep sequencing
Medium: yeast
Notes: single substitutions, model-inferred values
Relative to: wild type
Reading: higher = weaker binding
Parent: ERBIN, PDZ domain 1 (human); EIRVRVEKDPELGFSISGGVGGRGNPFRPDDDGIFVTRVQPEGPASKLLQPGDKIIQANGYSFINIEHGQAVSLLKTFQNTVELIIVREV; partner TKNYKQTSV
For `R28I`, “binding free energy change” read 0.0239 kcal/mol.
Under “binding free energy change”, `I16N` is recorded as 0.572 kcal/mol.
For `G69W`, “binding free energy change” read 0.195 kcal/mol.
Under “binding free energy change”, `P41S` is recorded as 0.301 kcal/mol.
`S15Y` — result for “binding free energy change”: 0.543 kcal/mol.
For `E11C`, “binding free energy change” read -0.543 kcal/mol.
`G60L`: “binding free energy change” 0.192 kcal/mol.
`N65G`: “binding free energy change” -0.0971 kcal/mol.
Under “binding free energy change”, `E1A` is recorded as 0.202 kcal/mol.
Under “binding free energy change”, `Q70D` is recorded as -0.0238 kcal/mol.
`I16G` — result for “binding free energy change”: 1.47 kcal/mol.
`L75C` — result for “binding free energy change”: -0.0675 kcal/mol.
`N25W` — result for “binding free energy change”: 1.11 kcal/mol.
Under “binding free energy change”, `P10L` is recorded as -0.477 kcal/mol.
`P29W` — result for “binding free energy change”: 0.139 kcal/mol.
`I55K` — result for “binding free energy change”: 1.44 kcal/mol.
`N80E`: “binding free energy change” -0.0471 kcal/mol.

Set 5
Target: HLF, bZIP domain (human)
Technique: DHFR protein complementation
Medium: yeast
Notes: single substitutions, most at no-binding floor
Relative to: wild-type JUN-FOS pair
Reading: higher = stronger binding
Parent: JUN, bZIP domain (human); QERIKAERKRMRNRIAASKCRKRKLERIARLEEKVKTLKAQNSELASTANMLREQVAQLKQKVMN; partner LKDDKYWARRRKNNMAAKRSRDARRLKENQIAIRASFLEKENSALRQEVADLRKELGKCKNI
The binding fitness of `S43P` is reported as -1.49 natural log.
For `S47H`, the binding fitness was -1.38 natural log.
The binding fitness of `E32D` is reported as -1.49 natural log.
The binding fitness of `N42A` is reported as -1.49 natural log.
With `A40V` the binding fitness was -1.5 natural log.
For `E33R`, the binding fitness was -1.3 natural log.
`E44I` gave a binding fitness of -1.49 natural log.
With `Q55I` the binding fitness was -1.21 natural log.
For `L59S`, the binding fitness was -1.33 natural log.
For `A46F`, the binding fitness was -1.25 natural log.
With `E33Q` the binding fitness was -1.42 natural log.
The binding fitness of `R30A` is reported as -1.28 natural log.
`L52D` has a binding fitness of -1.47 natural log.
For `E44M`, the binding fitness was -1.45 natural log.
For `L38V`, the binding fitness was -1.39 natural log.
`A46T` has a binding fitness of -1.18 natural log.
`S43M` gave a binding fitness of -1.51 natural log.
For `E32N`, the binding fitness was -1.51 natural log.
The binding fitness of `K36R` is reported as -1.37 natural log.
`V56E` gave a binding fitness of -1.5 natural log.
`I28S` has a binding fitness of -1.47 natural log.
For `L59H`, the binding fitness was -1.49 natural log.
The binding fitness of `K39N` is reported as -1.39 natural log.
With `L31M` the binding fitness was -1.43 natural log.

Set 6
Target: Fragile X messenger ribonucleoprotein 1, C-terminal low-complexity region (Fmr1, Mus musculus, UniProt P35922)
Technique: RNA Bind-n-Seq
Molecule type: RNA
Medium: in vitro
Tested at: 200 nM
Notes: whole 134-nt RNA, ends assumed
With: 150 mM KCl
Relative to: input library
Reading: higher = stronger binding
With `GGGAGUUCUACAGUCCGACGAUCCCUCAAGUCCUGUGCUACACAUCGUAUGUACCGAAUCGGGGCGGCGGGGCGGAAAGUAUUAUGUUACGCCGUUCGGAUCUGCACUUCCAGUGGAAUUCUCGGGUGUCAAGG` the log2 enrichment was 0.342.
For `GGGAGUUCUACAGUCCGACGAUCAGUCCUGUGCUACACAUCGUAUGUACCGAAUCGGGCCCCGGGCCCCGGGGCCCCGGGAAAGUAUUAUGUUACGCCGUUCGGAUCUGCACUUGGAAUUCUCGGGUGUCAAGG`, the log2 enrichment was -0.266.
For `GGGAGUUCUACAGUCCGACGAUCCCUGUGCUACACAUCGUAUGUACCGAAUCGGGGAAAAAGGGGUUUUUGGGGAAAAAGGGGAAAGUAUUAUGUUACGCCGUUCGGAUCUGCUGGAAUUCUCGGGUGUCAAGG`, the log2 enrichment was 0.4.
`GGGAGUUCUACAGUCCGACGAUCUCCUGUGCUACACAUCGUAUGUACCGAAUCGGGGAAAAAGGGGUUUGGGGUUUUUGGGGAAAGUAUUAUGUUACGCCGUUCGGAUCUGCAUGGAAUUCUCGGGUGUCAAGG` gave a log2 enrichment of 0.688.
For `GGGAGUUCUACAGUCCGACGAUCUGCAGAUUGAUGAGUAUGAUCACUCCAAGCCCAUCCAGGGGCAACAGAAGAAGCCCUUUGAGGUGCACUGGAGGAAGCACACCCUGUCCUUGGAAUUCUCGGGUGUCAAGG`, the log2 enrichment was -2.2.
For `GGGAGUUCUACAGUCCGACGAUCUAACUUUAGAGGAGGAUCUGAUGGAUAUGGGAGUGGACGUGGAUUUGGGGAUGGCUAUAAUGGGUAUGGAGGAGGACCUGGAGGUGGCAAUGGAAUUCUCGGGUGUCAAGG`, the log2 enrichment was 0.219.
For `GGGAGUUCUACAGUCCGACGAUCCUGUGCUACACAUCGUAUGUACCGAAUCGGGGCCCCCCCGGGGCCCCCCCGGCCCCCCCGGAAAGUAUUAUGUUACGCCGUUCGGAUCUGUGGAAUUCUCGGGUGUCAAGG`, the log2 enrichment was -0.916.
`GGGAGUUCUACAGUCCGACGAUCCACAGACAACACGCACCCACACAGACAAAGAGGGAAGGGGUUGGGAUGGGGACAGGGUGCACAGCAGGGCGGGGUAGGACCCCAGCCCCUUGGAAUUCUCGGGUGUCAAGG` has a log2 enrichment of 1.23.
`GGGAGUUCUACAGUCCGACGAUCUUGUUUAUUCUGUGUCUUUUGCCUCCUUUCCUACAGAUGUCCGGCAGGAUAAUGCUGCUGGCAGAGCUGGCUCCAGUAGCCUUACACAGGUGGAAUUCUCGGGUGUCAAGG` has a log2 enrichment of 0.503.
`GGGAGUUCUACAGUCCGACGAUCUGGGAGGUGGAUUUUGUUUAUUUUUUUAGCUCAUUUCCAGGGGUGGGAAUUUUUUUUUAAUAUCUGUCAUGAAUAAAGUUGUUUUUGAAAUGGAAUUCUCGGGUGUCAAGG` gave a log2 enrichment of 0.213.

Mixed results
`PhoQ, residues 284 288 289 292 302 303 ASVMEA` gave a fold induction of 20.9 (PhoP, residues 12 14 15 18 19 LHHVQ (Escherichia coli, UniProt P23836); Sort-seq, refers to: YFP reporter; E. coli; PhoQ-PhoP variant library, with: 10 µM Mg2+; relative to: high Mg2+ state, higher = stronger signaling).

Some of these lines once more (set 2):
The E-score of `CTCGTCCA` is reported as -0.0243.
The E-score of `AGCCCTGA` is reported as -0.124.
`CTAGTGCA` gave an E-score of -0.00517.
`AGGTCTAT` gave an E-score of 0.0321.
For `GCAAAGAC`, the E-score was -0.00841.
`GCCTATGA` gave an E-score of 0.0268.
For `CAGTGTCC`, the E-score was -0.045.
For `GCGAAAGC`, the E-score was 0.0696.
`AAGCTTAC` has an E-score of -0.0777.
`GGGCTGTA` gave an E-score of -0.189.
`CTGCGGTA` gave an E-score of 0.144.
With `TACTCTAA` the E-score was 0.00901.
